{"data": "Experimental data pooled from the literature", "note": "Parts stem from different laboratories: compare values within a part only."}
{"data": "Series 1", "target": "Interferon regulatory factor 5, full length, phosphomimetic (IRF5, Homo sapiens, UniProt Q13568-2, residues 1-514, K96S/S451D/S453D/S456D/S462D)", "technique": "protein-binding microarray", "form": "double-stranded DNA, one strand shown", "matrix": "in vitro", "tested at": "250 nM", "setting": "60-bp whole probe", "together with": "salmon DNA 0.4 mg/ml", "reference": "random background probes", "direction": "higher = stronger binding", "constant ends, left off below": "GCCTAGCAC … GTCTTGATTCGCTTGACGCTGCTG"}
{"Sequence": "GTTTCTTTTCTTTTCTTTTTGTGCTAG", "log fluorescence": "3.72 z-score"}
{"Sequence": "CTCCCCCTCAGATCTGCCGTCGTGCTA", "log fluorescence": "-0.432 z-score"}
{"Sequence": "GACGGAATGCTTCTCCTGACGTGCTAG", "log fluorescence": "-0.27 z-score"}
{"Sequence": "TTAGATATCGGGTATCGATTGGTGCTA", "log fluorescence": "5.57 z-score"}
{"Sequence": "GACGGTTCCGGTCTCGGGACGTGCTAG", "log fluorescence": "0.747 z-score"}
{"data": "Series 2", "target": "Sal-like protein 4, full length isoform B (SALL4, Homo sapiens, UniProt Q9UJQ4-2, residues 1-616)", "technique": "universal PBM", "form": "double-stranded DNA, one strand shown", "matrix": "in vitro", "tested at": "not given", "setting": "8-mer, flanks averaged, mean of replicates", "direction": "higher = stronger binding"}
{"Sequence": "AGCCAGCG", "E-score": -0.313}
{"Sequence": "ACTTCTGC", "E-score": -0.0147}
{"Sequence": "ACACGGAT", "E-score": 0.0372}
{"Sequence": "GCCGAGTA", "E-score": -0.278}
{"Sequence": "AGTAGCGA", "E-score": -0.00235}
{"data": "Series 3", "target": "Histone acetyltransferase KAT6A, winged helix 1, GST fusion (KAT6A, Homo sapiens, UniProt Q92794, residues 1-85)", "technique": "protein binding microarray", "form": "double-stranded DNA, one strand shown", "matrix": "in vitro", "tested at": "not given", "setting": "8-mer, flanks averaged, mean of 2 arrays, mostly near background", "reference": "not given", "direction": "higher = stronger binding", "Residues (chain)": "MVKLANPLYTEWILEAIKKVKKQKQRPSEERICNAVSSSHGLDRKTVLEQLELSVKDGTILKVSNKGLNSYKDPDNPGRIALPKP"}
{"Sequence": "CCGGCTTC", "E-score": 0.252}
{"Sequence": "ATGAGCAC", "E-score": -0.154}
{"Sequence": "AATACCAC", "E-score": -0.172}
{"Sequence": "AATGCGTG", "E-score": 0.0362}
{"Sequence": "ACGGGGCG", "E-score": 0.306}
{"Sequence": "CACCGGGC", "E-score": 0.241}
{"data": "Single results of other studies"}
{"Substance": "PhoQ, residues 284 288 289 292 302 303 TTCLQL", "target": "PhoP, residues 12 14 15 18 19 STWGI (Escherichia coli, UniProt P23836)", "assay": "Sort-seq, refers to: YFP reporter", "system": "E. coli", "conditions": "PhoQ-PhoP variant library, together with: 10 µM Mg2+", "how to read": "reference: high Mg2+ state, higher = stronger signaling", "quantity": "fold induction", "result": 2.42}
{"note": "For quick reference, copied from above (single results of other studies):"}
{"Substance": "PhoQ, residues 284 288 289 292 302 303 TTCLQL", "target": "PhoP, residues 12 14 15 18 19 STWGI (Escherichia coli, UniProt P23836)", "assay": "Sort-seq, refers to: YFP reporter", "system": "E. coli", "conditions": "PhoQ-PhoP variant library, together with: 10 µM Mg2+", "how to read": "reference: high Mg2+ state, higher = stronger signaling", "quantity": "fold induction", "result": 2.42}
